Assay results of several laboratories.
Compare with care: the assays were run in different laboratories. Numbers after ± are the reported error.
gdpP residues 84-659: gdpP, residues 84-659 (Bacillus subtilis, UniProt P37484)
Sequence of UniProt P37484 (84-659, looked up): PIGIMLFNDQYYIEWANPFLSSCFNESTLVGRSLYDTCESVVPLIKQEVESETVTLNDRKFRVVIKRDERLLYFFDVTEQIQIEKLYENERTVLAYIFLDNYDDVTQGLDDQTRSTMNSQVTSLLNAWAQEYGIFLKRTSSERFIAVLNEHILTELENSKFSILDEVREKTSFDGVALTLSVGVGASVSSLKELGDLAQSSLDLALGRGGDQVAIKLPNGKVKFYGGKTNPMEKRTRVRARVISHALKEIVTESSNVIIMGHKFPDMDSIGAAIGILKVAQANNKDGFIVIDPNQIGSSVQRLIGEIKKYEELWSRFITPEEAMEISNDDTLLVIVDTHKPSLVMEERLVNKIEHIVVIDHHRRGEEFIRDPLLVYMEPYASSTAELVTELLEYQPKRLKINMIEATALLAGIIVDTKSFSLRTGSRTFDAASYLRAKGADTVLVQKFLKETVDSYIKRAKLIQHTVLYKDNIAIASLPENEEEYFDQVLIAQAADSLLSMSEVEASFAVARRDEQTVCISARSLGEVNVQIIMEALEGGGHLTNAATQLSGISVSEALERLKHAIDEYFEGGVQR
CNR1: Cannabinoid receptor 1 (CNR1, Homo sapiens, UniProt P21554)
Sequence of UniProt P21554 (whole entry, looked up): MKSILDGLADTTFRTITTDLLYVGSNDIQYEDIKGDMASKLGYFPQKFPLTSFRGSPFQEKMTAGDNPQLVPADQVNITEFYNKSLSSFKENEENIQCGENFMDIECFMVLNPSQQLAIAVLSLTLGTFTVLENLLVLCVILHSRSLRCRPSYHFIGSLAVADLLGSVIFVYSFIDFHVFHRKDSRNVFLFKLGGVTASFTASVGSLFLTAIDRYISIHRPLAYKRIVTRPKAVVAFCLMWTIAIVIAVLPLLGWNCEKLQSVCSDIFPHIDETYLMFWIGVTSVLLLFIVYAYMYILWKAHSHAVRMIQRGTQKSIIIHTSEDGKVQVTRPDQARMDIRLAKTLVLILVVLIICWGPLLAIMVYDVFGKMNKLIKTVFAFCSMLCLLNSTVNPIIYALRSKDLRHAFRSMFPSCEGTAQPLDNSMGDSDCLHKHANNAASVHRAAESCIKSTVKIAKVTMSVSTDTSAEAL
Ryanodine receptor 1: Ryanodine receptor 1 (Oncorhynchus mykiss, UniProt A0A8C7UX14)
Sequence of UniProt Q12791 (whole entry, looked up): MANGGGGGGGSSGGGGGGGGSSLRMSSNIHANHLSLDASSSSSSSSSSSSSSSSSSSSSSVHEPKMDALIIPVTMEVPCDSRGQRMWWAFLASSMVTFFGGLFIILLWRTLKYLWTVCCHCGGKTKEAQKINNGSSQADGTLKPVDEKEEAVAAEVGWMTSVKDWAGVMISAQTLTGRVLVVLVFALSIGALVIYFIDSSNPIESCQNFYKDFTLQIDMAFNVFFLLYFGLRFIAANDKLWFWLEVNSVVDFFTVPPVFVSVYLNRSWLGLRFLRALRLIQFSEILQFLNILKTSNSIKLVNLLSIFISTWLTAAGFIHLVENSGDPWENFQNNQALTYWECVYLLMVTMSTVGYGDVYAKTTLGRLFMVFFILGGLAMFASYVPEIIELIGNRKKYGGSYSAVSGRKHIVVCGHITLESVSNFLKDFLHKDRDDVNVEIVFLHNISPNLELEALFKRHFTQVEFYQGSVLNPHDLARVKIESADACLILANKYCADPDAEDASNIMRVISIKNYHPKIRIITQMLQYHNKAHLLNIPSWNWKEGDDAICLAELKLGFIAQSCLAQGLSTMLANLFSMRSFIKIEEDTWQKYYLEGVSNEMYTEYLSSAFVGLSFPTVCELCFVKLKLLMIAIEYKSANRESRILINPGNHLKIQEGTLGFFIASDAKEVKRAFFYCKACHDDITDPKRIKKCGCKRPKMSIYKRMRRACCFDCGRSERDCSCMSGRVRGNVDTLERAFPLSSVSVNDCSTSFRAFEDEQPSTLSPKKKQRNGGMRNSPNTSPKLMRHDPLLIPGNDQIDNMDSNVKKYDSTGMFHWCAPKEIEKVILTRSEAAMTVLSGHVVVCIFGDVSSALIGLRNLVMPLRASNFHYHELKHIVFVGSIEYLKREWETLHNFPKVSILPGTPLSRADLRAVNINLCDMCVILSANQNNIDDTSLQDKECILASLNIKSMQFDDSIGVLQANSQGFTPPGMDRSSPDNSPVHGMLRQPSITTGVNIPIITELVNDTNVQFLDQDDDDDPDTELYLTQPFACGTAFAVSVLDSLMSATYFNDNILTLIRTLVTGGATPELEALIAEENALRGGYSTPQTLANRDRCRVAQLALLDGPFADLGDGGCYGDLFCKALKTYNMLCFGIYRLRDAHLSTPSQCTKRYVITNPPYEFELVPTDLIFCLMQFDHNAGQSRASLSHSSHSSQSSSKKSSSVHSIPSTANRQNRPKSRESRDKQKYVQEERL
Sequence of UniProt P41143 (whole entry, looked up): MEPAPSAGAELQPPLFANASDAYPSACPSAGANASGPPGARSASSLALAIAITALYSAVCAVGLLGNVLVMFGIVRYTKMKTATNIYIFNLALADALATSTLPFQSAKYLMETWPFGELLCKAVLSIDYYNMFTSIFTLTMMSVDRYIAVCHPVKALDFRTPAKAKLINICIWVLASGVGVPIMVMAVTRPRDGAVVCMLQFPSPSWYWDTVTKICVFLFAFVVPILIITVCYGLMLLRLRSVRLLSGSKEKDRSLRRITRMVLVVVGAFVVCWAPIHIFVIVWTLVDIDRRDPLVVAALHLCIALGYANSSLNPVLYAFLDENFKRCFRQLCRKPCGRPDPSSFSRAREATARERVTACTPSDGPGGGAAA
Sequence of UniProt A7XUK7 (whole entry, looked up): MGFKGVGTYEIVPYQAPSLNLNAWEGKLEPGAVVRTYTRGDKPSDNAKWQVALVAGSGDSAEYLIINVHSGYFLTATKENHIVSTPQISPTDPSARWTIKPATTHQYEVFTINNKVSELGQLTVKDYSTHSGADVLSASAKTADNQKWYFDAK
Sequence of UniProt P54292 (whole entry, looked up): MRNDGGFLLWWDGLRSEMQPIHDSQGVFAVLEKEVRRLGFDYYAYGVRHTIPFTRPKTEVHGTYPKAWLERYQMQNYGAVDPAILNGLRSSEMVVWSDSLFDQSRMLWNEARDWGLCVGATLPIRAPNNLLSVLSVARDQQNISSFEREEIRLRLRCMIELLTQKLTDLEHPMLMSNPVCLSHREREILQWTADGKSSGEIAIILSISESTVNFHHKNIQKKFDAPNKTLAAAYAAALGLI
Sequence of UniProt Q16572 (whole entry, unmodified, looked up): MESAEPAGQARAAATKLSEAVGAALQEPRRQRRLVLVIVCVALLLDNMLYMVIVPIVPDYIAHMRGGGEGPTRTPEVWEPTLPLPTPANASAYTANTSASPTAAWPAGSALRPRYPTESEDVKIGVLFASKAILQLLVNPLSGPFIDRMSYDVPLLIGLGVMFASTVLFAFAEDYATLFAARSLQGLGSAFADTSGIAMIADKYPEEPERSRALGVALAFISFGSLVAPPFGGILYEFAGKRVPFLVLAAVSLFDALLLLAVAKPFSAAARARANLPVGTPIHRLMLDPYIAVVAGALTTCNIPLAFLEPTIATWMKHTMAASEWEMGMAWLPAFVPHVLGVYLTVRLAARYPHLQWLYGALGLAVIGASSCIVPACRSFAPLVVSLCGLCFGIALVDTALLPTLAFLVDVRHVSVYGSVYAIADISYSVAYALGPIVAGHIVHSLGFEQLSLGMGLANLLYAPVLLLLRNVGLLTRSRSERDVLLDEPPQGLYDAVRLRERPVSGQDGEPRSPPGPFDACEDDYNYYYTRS
Sequence of UniProt P62813 (whole entry, unmodified, looked up): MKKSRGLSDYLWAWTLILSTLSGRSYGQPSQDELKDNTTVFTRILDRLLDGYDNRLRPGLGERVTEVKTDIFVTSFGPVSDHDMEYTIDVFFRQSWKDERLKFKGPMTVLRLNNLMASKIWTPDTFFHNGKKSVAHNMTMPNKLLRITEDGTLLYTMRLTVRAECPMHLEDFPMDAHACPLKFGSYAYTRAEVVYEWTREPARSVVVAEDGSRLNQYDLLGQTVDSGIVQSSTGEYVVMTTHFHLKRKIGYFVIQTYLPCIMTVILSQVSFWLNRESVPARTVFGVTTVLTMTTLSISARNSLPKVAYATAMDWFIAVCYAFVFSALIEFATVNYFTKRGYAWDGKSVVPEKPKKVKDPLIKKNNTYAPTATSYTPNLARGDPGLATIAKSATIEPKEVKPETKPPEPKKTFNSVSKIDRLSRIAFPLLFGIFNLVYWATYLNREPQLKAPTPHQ
Sequence of UniProt P43681 (whole entry, looked up): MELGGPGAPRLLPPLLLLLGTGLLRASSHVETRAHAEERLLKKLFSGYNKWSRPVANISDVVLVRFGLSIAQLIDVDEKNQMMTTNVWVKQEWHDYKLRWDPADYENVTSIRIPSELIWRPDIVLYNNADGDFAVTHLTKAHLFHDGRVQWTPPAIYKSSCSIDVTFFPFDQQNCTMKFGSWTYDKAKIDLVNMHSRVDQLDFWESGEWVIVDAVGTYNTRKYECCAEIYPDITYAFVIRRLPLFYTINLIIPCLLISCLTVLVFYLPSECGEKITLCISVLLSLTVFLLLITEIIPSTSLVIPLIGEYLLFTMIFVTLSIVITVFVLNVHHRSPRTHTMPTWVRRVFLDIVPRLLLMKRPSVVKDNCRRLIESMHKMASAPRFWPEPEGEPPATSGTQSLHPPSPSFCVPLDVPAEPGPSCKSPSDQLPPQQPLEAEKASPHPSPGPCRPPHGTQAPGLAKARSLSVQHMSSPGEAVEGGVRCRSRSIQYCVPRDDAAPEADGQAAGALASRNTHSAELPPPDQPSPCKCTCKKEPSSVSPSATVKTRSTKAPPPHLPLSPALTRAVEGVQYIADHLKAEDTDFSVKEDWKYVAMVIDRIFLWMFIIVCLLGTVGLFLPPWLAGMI
Sequence of UniProt Q9H008 (whole entry, looked up): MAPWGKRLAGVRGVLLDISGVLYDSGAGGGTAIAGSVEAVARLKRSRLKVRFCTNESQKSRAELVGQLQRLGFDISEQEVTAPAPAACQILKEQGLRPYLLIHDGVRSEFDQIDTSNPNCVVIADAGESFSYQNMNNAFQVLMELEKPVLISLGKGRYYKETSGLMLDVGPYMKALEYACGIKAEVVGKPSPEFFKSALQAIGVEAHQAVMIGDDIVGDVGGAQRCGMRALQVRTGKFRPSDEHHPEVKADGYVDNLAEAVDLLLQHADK

Nc1ncnc2c1ncn2[C@@H]1O[C@@H]2COP(=O)(O)O[C@H]3C[C@H](n4cnc5c(N)ncnc54)O[C@@H]3COP(=O)(O)O[C@H]2[C@H]1F
degradation rate (gdpP residues 84-659; substrate, HPLC; 100 µM, 37 °C, upper limit if undegraded 24 h, added: enzyme 1 µM): ≤ 0.001 mol/min/mol enzyme

C[N@@+]1([O-])CCC[C@H]1c1cccnc1
peak current (Neuronal acetylcholine receptor; alpha4/beta2, (α4)3(β2)2 stoichiometry (Homo sapiens, UniProt P17787+P43681); ion current, two-electrode voltage clamp; Xenopus oocytes; 200 µM, added: ACh 1 µM; reference: ACh alone): 44 ± 5%

NC(=O)CN1CCC[C@@H](NC(=O)c2nn(Cc3ccc(F)cc3)c3ccccc23)C1
Emax (CNR1; calcium mobilization, agonist; CHO-K1 expressing Gαq16; reference: CP55,940 maximum): 117 ± 3%

Cc1ccc2nc(-c3ccc4nc(-c5ccc(NC(=O)c6cc(C(F)(F)F)cc(C(F)(F)F)c6)cc5)sc4c3)sc2c1S(=O)(=O)O.N
Ki ratio (HCV genotype 1a NS3/NS4A protease M485A; peptide cleavage, inhibitor; reference: wild type over M485A): ~5 fold

CC(C)(NC(=O)c1nn(Cc2ccc(F)cc2)c2ccccc12)c1cccc(C(N)=O)c1
Emax (CNR1; calcium mobilization, agonist; CHO-K1 expressing Gαq16; reference: CP55,940 maximum): 24 ± 1%

CC(C)C[C@H](NC(=O)[C@H](CCCCN)NC(=O)[C@H](CCCCN)NC(=O)CNC(=O)[C@H](CCCNC(=N)N)NC(=O)[C@@H](N)CCCNC(=N)N)C(=O)N[C@@H](CC(C)C)C(=O)N[C@@H](CC(C)C)C(=O)N[C@@H](CC(C)C)C(=O)N[C@@H](CC(C)C)C(=O)N[C@@H](CCCCN)C(=O)N[C@@H](CCCCN)C(=O)N[C@@H](CCCCN)C(=O)NCC(=O)N[C@@H](CSC1CC(=O)N(CCCCCNC(=O)c2ccc(-c3c4ccc(=N)c(S(=O)(=O)O)c-4oc4c(S(=O)(=O)O)c(N)ccc34)c(C(=O)O)c2)C1=O)C(=O)O (stereo partly drawn)
fraction remaining bound (dnaK, ADP-bound (Escherichia coli, UniProt P0A6Y8); binding, fluorescence anisotropy competition; excess competitor): ~25%

O=S(=O)(O)Oc1ccc(-c2ccc(Cl)c(Cl)c2)cc1
Vmax (sulfatase, human liver microsomes; substrate; pH 7.4, 37 °C): 2.1 ± 0.2 nmol/min/mg

NCCCCCCNC(=O)c1ccc(NC(=O)c2ccc(CN(C(=O)c3ccc4c(c3)OCC(=O)N4)C3CC3)cc2)cc1
degradation (NSD2 (Homo sapiens, UniProt O96028); compound-induced degradation, degrader, in-cell western; U2OS, UBR1 siRNA knockdown; i=-2,-3,-4): no effect

COc1cccc(Oc2ccc(C(=O)N[C@H](CN3CCN(c4cccc(O)c4)[C@@H](C)C3)C(C)C)cc2)c1
Ke (OPRD1 (Homo sapiens, UniProt P41143); antagonist; CHO; added: DPDPE): 1500 ± 400 nM

O[C@@H]1CCCC[C@H]1N1CCC(c2ccccc2)CC1 (racemic)
affinity ratio (SLC18A3 (Homo sapiens, UniProt Q16572, A334F); [3H]compound saturation binding; reference: Kd A334F mutant over wild type): 4 fold

Nc1ncnc2c1ncn2[C@@H]1O[C@@H]2CO[P@@](=O)(S)O[C@H]3[C@@H](O)[C@H](n4cnc5c(N)ncnc54)O[C@@H]3CO[P@](=O)(S)O[C@H]2[C@H]1O
degradation rate (gdpP residues 84-659; substrate, HPLC; 100 µM, 37 °C, upper limit if undegraded 24 h, added: enzyme 1 µM): ≤ 0.001 mol/min/mol enzyme

N[C@@H](COP(=O)(O)O)C(=O)O
substrate hydrolysis (Phospholysine phosphohistidine inorganic pyrophosphate phosphatase (LHPP, Homo sapiens, UniProt Q9H008); substrate, absorbance; 100 µM, 90 min, pH 7.8): 5.75%

C[C@@H]1CN(c2ccccn2)C(=O)c2cc(COc3ccc(Cl)cn3)nn21
activity class (Grm5 (Rattus norvegicus, UniProt P31424); calcium mobilisation, allosteric modulator; rat mGlu5-expressing cells; concentration not given): inactive

anthraquinone-neomycin
binding site size (poly(dA)•2poly(dT) DNA triplex; DNA binding, CD titration; concentration not given, pH 6.8, KCl 150 mM): 7.5 base triplets

[2H]C([2H])([2H])C([2H])([2H])Oc1ccccc1S(=O)(=O)N1CC(c2nc(-c3ccc(F)cc3)no2)C1
activity (Calcium-activated potassium channel subunit alpha-1, with beta-3 subunit (KCNMA1, Homo sapiens, UniProt Q12791); HEK293; 30 µM): inactive

DNRDGNVYYF
Vmax (Serine endoprotease DegS (degS, Escherichia coli, UniProt P0AEE3, D320A/H198P); protease activity; peptide; 30 µM, 23 °C, 0.1 µM enzyme trimer, added: saturating OMP peptide): 2 ± 0.1 s⁻¹ per enzyme

KQTARKSTGGWW (myristoyl-Lys9)
kcat/Km (HDAC8 (Homo sapiens, UniProt Q9BY41); substrate, HPLC; peptide; 1 µM, 1 h, pH 8, 37 °C): 120 ± 11 M⁻¹ s⁻¹

CCCCSS(C)(=O)=O
GABA current (Gabrg2/GABRB2/Gabra1 (Rattus norvegicus, UniProt P18508+P47870+P62813, C260A/C282A/C312A/C319A/C341A/L309C); covalent modifier, two-electrode voltage clamp; Xenopus laevis oocytes; 0.5 mM, labelled without GABA, added: GABA EC10; reference: before labelling): increased

CC(=O)N[C@H]1[C@H](OCCN)O[C@H](CO)[C@@H](O[C@@H]2O[C@H](CO)[C@H](O)[C@H](O)[C@H]2NC(C)=O)[C@@H]1O
lectin binding (Agglutinin (Sclerotinia sclerotiorum, UniProt A7XUK7); glycan array; concentration not given, pH 7.4, room temperature): 21100 ± 348 RFU

CCCC(C)Sc1nc2c([nH]1)c(=S)n(C)c(=O)n2C (stereo not drawn)
remaining activity (Nr3c1 (Rattus norvegicus, UniProt P06536); reporter gene, antagonist, MMTV-luciferase; T47D/A1-2; 10 µM, 24 h, added: 5 nM dexamethasone; reference: maximal activity): 97%

Clc1cc(Cl)c(-c2cc(Cl)c(Cl)cc2Cl)cc1Cl
EC20 (Ryanodine receptor 1; [3H]ryanodine binding; rainbow trout, skeletal muscle microsomes): 5810 nM

berbamine
retention time (Heat shock protein HSP 90-alpha, C-terminal domain (HSP90AA1, Homo sapiens, UniProt P07900); binding, zonal affinity chromatography; pH 7.4, 25 °C): 30 min

CSc1cccc(CC(=O)N[C@H]2CCOC2=O)c1
activation (rhlR (Pseudomonas aeruginosa, UniProt P54292); reporter gene, agonist; Escherichia coli reporter strain; 100 µM; reference: BHL 900 µM): 70%

Clc1cc(Cl)c(-c2c(Cl)cc(Cl)c(Cl)c2Cl)cc1Cl
Emax (Ryanodine receptor 1; [3H]ryanodine binding; rainbow trout, skeletal muscle microsomes; up to 20 µM; reference: DMSO): 144 ± 9.55%

Nc1ncnc2c1ncn2[C@@H]1O[C@H](COP(=O)(O)OP(=O)(O)OP(=O)(O)O)[C@@H](O)[C@H]1O
ΔTm (Lysine--tRNA ligase (Plasmodium falciparum, UniProt Q8IDJ8); thermal shift; 40 µM, no lysine): -0.5 °C

CC(C)(NC(=O)c1nn(CC2CCOCC2)c2ccccc12)c1cccc(C(N)=O)c1
Emax (CNR1; calcium mobilization, agonist; CHO-K1 expressing Gαq16; reference: CP55,940 maximum): 92 ± 1%

C=CCCC[C@H](NC(=O)[C@H](CC(C)C)NC(=O)[C@@H](NC(=O)[C@H](CCCNC(=N)N)NC(=O)[C@H](CCCC=C)NC(=O)[C@@H](NC(=O)[C@H](C)NC(=O)[C@H](CCC(=O)O)NC(C)=O)[C@@H](C)CC)[C@@H](C)CC)C(=O)N[C@@H](CCC(N)=O)C(=O)N[C@@H](CC(C)C)C(=O)N[C@@H](CC(C)C)C(=O)N[C@@H](Cc1ccccc1)C(=O)N[C@H](C(=O)N[C@@H](Cc1c[nH]cn1)C(=O)N[C@@H](Cc1ccccc1)C(=O)N[C@@H](CCCNC(=N)N)C(=O)N[C@H](C(=O)NCC(=O)N[C@@H](CCCNC(=N)N)C(=O)N[C@@H](CCC(=O)O)C(=O)N[C@@H](CCCNC(=N)N)C(=O)N[C@@H](CCC(=O)O)C(=O)N[C@@H](CCCNC(=N)N)C(=O)N[C@@H](CCC(=O)O)C(=O)N[C@@H](CCCNC(=N)N)C(=O)N[C@@H](CCC(=O)O)C(N)=O)[C@@H](C)CC)[C@@H](C)CC
minimum DNA retardation concentration (HIV-1 integrase and DNA substrate; DNA binding, gel retardation; 2 h, 37 °C, added: radiolabelled oligonucleotide DNA): 37 µM

Nc1ncnc2c1nc(Sc1ccc(Cl)cc1)n2[C@@H]1O[C@@H]2CO[P@](=O)(S)O[C@H]2[C@H]1O
selectivity ratio (cAMP-dependent protein kinase type II-beta regulatory subunit, holoenzyme with catalytic subunit (Prkar2b, Rattus norvegicus, UniProt P12369, S112A); PKA holoenzyme activation, activator, fluorescence anisotropy; reference: RIIβ over RIα, higher = RIIβ-selective): 3.6

Clc1ccc(Cl)c(-c2cc(Cl)ccc2Cl)c1
EC20 (Ryanodine receptor 1; [3H]ryanodine binding; rainbow trout, skeletal muscle microsomes): 1400 nM

O=c1cc(-c2ccccc2)oc2cc(O)ccc12
KI (Cytochrome P450 1A1 (CYP1A1, Homo sapiens, UniProt P04798); enzyme inactivation, mechanism-based inactivator, EROD; added: NADPH preincubation): 2430 nM
